Published values of several laboratories.
Lines come from different studies, so protocols differ. ± gives the spread as reported.

With O=c1c(NCCc2ccc(Br)cc2)c(NC2CCN(Cc3ccccc3)CC2)c1=O the viability was 91.45 ± 0.65% (SH-SY5Y; MTT; 12.5 µM, 24 h).
For O=C1CC(c2ccccc2)Oc2ccccc21 (stereo not shown), the viability was 100% (Vero E6-GFP; highest tested, 72 h, together with: CP-100356 2 µM; relative to: untreated).
O=C1CCCC2=C1C(c1c[nH]c3ccccc13)n1c(sc(=Cc3c[nH]c4ccccc34)c1=O)=N2 (stereo not shown) has a viability of 96% (SH-SY5Y; cell growth or viability, MTT; 20 µM).
COC(=O)C1=CO[C@@H](OC(C)=O)[C@@H]2C(Cn3cc(CCO)nn3)=CC[C@H]12 has a viability of over 78% (SK-N-SH; MTT; 0.075 to 0.6 µM, 24 h, together with: H2O2).
For CC(C)C[C@H](NC(=O)[C@H](CCC(N)=O)NC(=O)CNC(=O)[C@H](Cc1c[nH]cn1)NC(=O)[C@H](CCC(N)=O)NC(=O)[C@H](CCCNC(=N)N)NC(=O)[C@H](CCCNC(=N)N)NC(=O)CNC(=O)CNC(=O)[C@H](CCCNC(=N)N)NC(=O)[C@H](CCCNC(=N)N)NC(=O)[C@H](CCCNC(=N)N)NC(=O)[C@H](CCC(N)=O)NC(=O)[C@H](CCCNC(=N)N)NC(=O)[C@H](CCCNC(=N)N)NC(=O)[C@H](CCCCN)NC(=O)[C@H](CCCCN)NC(=O)[C@H](CCCNC(=N)N)NC(=O)CN)C(=O)N[C@@H](Cc1c[nH]c2ccccc12)C(=O)N[C@@H](Cc1ccccc1)C(=O)N1CCC[C@H]1C(=O)N[C@@H](CCC(=O)O)C(=O)NCC(=O)N[C@@H](Cc1ccccc1)C(=O)O, viability read “no effect” (human PBMC, normal; WST-8; concentration not given, 24 h).
COCCN1COc2c(cc3c4c(c(=O)oc3c2C)CCC4)C1 gave a viability of 90.2 ± 0.39% (SH-SY5Y; 50 µM, 24 h).
Nc1ccc(Nc2c(NC3CCN(Cc4ccccc4)CC3)c(=O)c2=O)cc1 has a viability of 103 ± 2.34% (SH-SY5Y; MTT; 12.5 µM, 24 h).
With COC(=O)C1=CO[C@@H](O)[C@@H]2C(Cn3cc(C4(O)CCCC4)nn3)=CC[C@H]12 the viability was over 78% (SK-N-SH; MTT; 0.075 to 0.6 µM, 24 h, together with: H2O2).
The viability of COc1ccc(CCNc2c(NC3CCN(Cc4ccccc4)CC3)c(=O)c2=O)cc1OC is reported as 98.3 ± 1.58% (SH-SY5Y; MTT; 12.5 µM, 24 h).
For COC(=O)C1=CO[C@@H](OC(C)=O)[C@@H]2C(Cn3cc(CON4C(=O)c5ccccc5C4=O)nn3)=CC[C@H]12, the viability was over 78% (SK-N-SH; MTT; 0.075 to 0.6 µM, 24 h, together with: H2O2).
COc1ccc(Nc2c(NC3CCN(Cc4ccccc4)CC3)c(=O)c2=O)cc1 gave a viability of 103.2 ± 0.48% (SH-SY5Y; MTT; 6.25 µM, 24 h).
The viability of O=c1oc2c(CNCCc3cccc(F)c3)c(O)ccc2c2c1CCC2 is reported as 95.3 ± 0.32% (SH-SY5Y; 100 µM, 24 h).
COC(=O)C1=CO[C@@H](O)[C@@H]2C(Cn3cc(-c4ccc(OC)cc4)nn3)=CC[C@H]12 has a viability of over 78% (SK-N-SH; MTT; 0.075 to 0.6 µM, 24 h, together with: H2O2).

For quick reference, copied from above:
COc1ccc(Nc2c(NC3CCN(Cc4ccccc4)CC3)c(=O)c2=O)cc1 gave a viability of 103.2 ± 0.48% (SH-SY5Y; MTT; 6.25 µM, 24 h).
